# Measured values pooled from the literature.
# Each line is one published result; not all experiments were run side by side. “And” joins repeats or separate records; there may be more than shown.
# CDK16: Cyclin-dependent kinase 16 (CDK16, Homo sapiens, UniProt Q00536)
# CDK16 with cyclin Y: Cyclin-dependent kinase 16, with cyclin Y (CDK16, Homo sapiens, UniProt Q00536)
Structure (SMILES),target,assay,setting,how to read,measurement,value
CN1CCN(Cc2ccc(NC(=O)c3cccc(C#Cc4cnc(N)c5ncccc45)c3)cc2C(F)(F)F)CC1,CDK16,"cell-free assay, competition with immobilised ligand",50 nM,,remaining binding,66%
C=C1CCCCCCCCCC(CO)C1=O (stereo not shown),CDK16,"cell-free assay, competition with immobilised ligand",10 µM,,remaining binding,85%
COc1cc(Nc2nc(C)cc(-c3cnn4nc(OC)ccc34)n2)cc(C(F)(F)F)c1,CDK16,inhibitor,"1 µM, PCTK1",reference: control,remaining activity,74%
COc1ccc(NC(=O)Nc2ccc3c(c2)C(=O)N(C(C)CO)CC(C)C(CN(C)Cc2ccc4c(c2)OCO4)O3)cc1 (stereo not shown),CDK16,"binding, competition with immobilised ligand",10 µM,,remaining binding,95%
O=C(Cc1ccc(OCc2ccccc2)cc1)NC1(C(=O)O)CCN(C(=O)c2ccc(-c3cccc(Cl)c3)cc2)CC1,CDK16 with cyclin Y,"enzyme activity, inhibitor",10 µM,,activity vs control,149%
Cc1ccc(-c2c(/C=C(\C#N)C(=O)NC(C)C)n(CCCO)c3ncnc(N)c23)cc1,CDK16,"cell-free assay, competition with immobilised ligand",1 µM,,remaining binding,100%
CNC1C[S+]2CC[S+]3CC[S+](C1)[Ru-4]321([N]=C=S)[n]2c3ccc(OC)cc3c3c4c(c5cc(F)c[n+]1c5c32)C(=O)NC4=O (stereo not shown),CDK16,KinomeScan,0.1 µM,reference: untreated,remaining binding,100%
COCC12C(=O)NC3C4(C(OC)CC1O)C1CC5(O)C(OC)C(O)C(OC(C)=O)(C1C5OC(=O)c1ccccc1)C3(O)C(OC)C24 (stereo not shown),CDK16,"kinase activity, inhibitor, ProQinase kinase profiling",25 µM,reference: control,remaining activity,86% and 96%
Cc1cnc2nc1Nc1cccc(c1)COC/C=C/COCc1cc(ccc1OCCN1CCOCC1)N2,CDK16,"binding, competition with immobilised ligand",0.1 µM,,remaining binding,82%
CCn1cc(C(=O)O)c(=O)c2c(N)c(F)c(NC3CCCCC3)cc21,CDK16 with cyclin Y,kinase activity,"0.1 µM, with: ATP at Km",,inhibition,38.3%
CCN1CCN(Cc2ccc(C(=O)Nc3ccc(C)c(NCc4cnc5[nH]ccc5c4OC)c3)cc2C(F)(F)F)CC1,CDK16,"binding, competition with immobilised ligand",1 µM,,remaining binding,100%
COc1c(Cl)cccc1Nc1c(-c2ccncc2C#C[C@@]2(C)CCCN2C(=O)/C=C/CN(C)C)[nH]c2c1C(=O)NCC2,CDK16,"binding, competition with immobilised ligand",3 µM,,remaining binding,85%
Nc1ncc(-c2cc(-c3cnn(CC(F)(F)F)c3)ncc2F)nc1C(=O)NC1CNCC(F)C1 (stereo not shown),CDK16 with cyclin Y,enzyme activity,1 µM,reference: DMSO control,remaining activity,80.5%

# For quick reference, copied from above:
Structure (SMILES),target,assay,setting,how to read,measurement,value
C=C1CCCCCCCCCC(CO)C1=O (stereo not shown),CDK16,"cell-free assay, competition with immobilised ligand",10 µM,,remaining binding,85%
